# Measured values of several laboratories.
# ± gives the spread as reported.
# CYP2B6: Cytochrome P450 2B6 (CYP2B6, Homo sapiens, UniProt P20813)
# Sequence of UniProt P20813 (whole entry, looked up): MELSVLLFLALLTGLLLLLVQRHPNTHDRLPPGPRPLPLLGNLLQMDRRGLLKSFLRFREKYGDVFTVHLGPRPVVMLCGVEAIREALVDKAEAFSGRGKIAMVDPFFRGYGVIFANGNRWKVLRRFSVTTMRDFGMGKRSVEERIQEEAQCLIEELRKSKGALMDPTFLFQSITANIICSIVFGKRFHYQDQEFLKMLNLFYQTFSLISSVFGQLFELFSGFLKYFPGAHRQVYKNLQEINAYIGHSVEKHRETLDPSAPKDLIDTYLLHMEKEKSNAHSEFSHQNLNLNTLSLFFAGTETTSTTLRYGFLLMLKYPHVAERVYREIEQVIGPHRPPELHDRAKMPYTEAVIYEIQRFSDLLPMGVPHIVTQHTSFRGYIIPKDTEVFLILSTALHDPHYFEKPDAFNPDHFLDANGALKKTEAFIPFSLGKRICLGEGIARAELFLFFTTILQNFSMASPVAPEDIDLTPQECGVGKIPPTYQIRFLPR
# Sequence of UniProt P34972 (whole entry, unmodified, looked up): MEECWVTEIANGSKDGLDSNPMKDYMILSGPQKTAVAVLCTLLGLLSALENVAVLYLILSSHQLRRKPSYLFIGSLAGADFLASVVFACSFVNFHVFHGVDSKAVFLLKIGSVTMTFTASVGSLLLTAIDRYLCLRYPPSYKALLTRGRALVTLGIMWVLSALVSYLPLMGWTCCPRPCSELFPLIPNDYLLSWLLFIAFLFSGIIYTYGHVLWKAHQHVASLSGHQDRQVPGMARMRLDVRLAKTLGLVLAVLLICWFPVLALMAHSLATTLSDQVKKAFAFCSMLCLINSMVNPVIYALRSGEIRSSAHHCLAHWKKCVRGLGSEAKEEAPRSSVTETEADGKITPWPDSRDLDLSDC
# Sequence of UniProt P21554 (whole entry, unmodified, looked up): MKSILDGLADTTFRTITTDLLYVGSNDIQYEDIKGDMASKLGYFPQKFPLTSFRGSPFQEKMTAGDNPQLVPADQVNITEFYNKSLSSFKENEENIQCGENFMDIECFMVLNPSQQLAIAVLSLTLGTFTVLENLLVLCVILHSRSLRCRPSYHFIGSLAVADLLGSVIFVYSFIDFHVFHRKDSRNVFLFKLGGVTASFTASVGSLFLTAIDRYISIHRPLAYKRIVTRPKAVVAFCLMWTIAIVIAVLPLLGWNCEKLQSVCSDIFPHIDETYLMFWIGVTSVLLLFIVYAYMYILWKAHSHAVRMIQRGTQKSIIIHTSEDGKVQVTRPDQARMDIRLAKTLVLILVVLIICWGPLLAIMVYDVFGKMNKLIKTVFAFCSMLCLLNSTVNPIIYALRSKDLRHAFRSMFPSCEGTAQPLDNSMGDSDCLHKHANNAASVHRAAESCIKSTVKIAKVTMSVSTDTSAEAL
# Sequence of UniProt P35346 (whole entry, looked up): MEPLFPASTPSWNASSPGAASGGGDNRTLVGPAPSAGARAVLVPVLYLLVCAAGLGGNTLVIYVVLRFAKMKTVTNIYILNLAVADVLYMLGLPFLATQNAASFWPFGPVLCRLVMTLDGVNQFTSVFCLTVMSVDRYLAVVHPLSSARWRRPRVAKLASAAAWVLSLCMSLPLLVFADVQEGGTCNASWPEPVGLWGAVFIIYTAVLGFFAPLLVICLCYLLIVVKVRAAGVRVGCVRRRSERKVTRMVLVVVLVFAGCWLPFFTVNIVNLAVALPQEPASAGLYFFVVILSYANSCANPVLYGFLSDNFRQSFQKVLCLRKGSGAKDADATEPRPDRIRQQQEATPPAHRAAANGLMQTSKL
# Sequence of UniProt P13128 (whole entry, looked up): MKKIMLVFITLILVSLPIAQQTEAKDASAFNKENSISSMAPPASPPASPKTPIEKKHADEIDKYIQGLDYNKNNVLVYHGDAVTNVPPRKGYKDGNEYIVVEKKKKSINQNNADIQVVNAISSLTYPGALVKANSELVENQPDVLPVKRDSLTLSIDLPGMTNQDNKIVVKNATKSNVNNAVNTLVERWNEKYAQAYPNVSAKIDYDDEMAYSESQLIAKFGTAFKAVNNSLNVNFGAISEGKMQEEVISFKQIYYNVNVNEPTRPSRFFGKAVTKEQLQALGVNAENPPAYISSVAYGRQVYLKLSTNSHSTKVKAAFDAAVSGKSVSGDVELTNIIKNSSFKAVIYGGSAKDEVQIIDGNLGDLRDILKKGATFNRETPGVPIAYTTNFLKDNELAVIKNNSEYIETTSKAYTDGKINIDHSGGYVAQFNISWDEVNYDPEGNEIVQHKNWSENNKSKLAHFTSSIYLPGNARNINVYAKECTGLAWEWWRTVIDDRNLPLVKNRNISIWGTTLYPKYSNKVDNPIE
# Sequence of UniProt Q66478 (whole entry, looked up): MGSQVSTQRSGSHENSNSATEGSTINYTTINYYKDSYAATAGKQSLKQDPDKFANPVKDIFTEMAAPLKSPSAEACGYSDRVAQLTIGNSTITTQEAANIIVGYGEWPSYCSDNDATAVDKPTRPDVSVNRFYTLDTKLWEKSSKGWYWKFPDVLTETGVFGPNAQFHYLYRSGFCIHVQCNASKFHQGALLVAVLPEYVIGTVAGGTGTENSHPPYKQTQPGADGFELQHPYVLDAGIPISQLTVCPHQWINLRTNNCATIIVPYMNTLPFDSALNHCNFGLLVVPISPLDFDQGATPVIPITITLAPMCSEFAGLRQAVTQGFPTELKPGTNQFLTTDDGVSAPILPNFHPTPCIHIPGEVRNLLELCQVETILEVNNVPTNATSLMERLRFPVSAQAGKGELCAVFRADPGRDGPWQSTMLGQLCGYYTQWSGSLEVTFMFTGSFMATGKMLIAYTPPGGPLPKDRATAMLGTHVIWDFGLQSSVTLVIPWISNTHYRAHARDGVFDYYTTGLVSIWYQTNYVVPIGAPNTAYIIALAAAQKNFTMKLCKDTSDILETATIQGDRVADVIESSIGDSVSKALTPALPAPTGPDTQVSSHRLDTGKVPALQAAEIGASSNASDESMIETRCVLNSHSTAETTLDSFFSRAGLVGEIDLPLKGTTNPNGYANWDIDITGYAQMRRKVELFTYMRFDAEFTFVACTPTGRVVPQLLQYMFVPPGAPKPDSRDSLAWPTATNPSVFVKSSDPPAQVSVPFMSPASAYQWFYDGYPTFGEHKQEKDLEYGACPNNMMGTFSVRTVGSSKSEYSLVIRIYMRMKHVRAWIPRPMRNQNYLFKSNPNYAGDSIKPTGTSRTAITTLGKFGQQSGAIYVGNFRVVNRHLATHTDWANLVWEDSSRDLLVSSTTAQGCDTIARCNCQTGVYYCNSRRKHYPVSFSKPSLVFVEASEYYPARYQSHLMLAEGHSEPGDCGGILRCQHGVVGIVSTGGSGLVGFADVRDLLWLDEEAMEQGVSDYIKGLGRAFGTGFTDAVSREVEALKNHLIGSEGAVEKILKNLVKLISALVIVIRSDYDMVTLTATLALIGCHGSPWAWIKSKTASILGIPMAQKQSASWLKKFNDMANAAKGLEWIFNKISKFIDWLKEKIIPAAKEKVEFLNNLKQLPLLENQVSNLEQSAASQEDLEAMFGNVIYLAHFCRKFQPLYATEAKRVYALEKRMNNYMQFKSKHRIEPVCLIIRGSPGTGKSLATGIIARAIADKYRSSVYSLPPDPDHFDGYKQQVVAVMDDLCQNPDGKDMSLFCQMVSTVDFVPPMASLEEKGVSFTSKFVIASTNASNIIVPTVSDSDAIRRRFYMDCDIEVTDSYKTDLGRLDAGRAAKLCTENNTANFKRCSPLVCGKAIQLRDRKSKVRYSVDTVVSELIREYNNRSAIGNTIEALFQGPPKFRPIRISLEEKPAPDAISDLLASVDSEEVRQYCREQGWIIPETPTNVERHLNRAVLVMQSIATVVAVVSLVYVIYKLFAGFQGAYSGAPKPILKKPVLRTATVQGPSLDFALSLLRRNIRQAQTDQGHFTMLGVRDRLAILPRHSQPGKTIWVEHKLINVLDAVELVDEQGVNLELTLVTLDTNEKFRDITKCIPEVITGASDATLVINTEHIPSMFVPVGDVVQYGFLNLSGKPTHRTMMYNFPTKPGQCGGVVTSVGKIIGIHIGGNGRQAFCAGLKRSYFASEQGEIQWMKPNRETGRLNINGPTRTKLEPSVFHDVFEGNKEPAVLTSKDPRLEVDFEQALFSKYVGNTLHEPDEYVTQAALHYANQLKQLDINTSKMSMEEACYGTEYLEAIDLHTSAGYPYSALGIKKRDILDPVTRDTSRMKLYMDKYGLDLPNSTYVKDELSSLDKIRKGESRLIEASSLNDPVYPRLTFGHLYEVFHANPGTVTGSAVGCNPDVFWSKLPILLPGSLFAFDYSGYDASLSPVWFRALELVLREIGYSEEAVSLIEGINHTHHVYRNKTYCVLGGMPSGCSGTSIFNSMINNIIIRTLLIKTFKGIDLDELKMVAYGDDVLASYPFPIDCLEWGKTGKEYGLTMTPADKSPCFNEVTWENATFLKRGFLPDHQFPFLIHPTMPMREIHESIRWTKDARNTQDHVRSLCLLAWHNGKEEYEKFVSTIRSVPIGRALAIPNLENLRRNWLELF
# Sequence of UniProt Q01959 (whole entry, unmodified, looked up): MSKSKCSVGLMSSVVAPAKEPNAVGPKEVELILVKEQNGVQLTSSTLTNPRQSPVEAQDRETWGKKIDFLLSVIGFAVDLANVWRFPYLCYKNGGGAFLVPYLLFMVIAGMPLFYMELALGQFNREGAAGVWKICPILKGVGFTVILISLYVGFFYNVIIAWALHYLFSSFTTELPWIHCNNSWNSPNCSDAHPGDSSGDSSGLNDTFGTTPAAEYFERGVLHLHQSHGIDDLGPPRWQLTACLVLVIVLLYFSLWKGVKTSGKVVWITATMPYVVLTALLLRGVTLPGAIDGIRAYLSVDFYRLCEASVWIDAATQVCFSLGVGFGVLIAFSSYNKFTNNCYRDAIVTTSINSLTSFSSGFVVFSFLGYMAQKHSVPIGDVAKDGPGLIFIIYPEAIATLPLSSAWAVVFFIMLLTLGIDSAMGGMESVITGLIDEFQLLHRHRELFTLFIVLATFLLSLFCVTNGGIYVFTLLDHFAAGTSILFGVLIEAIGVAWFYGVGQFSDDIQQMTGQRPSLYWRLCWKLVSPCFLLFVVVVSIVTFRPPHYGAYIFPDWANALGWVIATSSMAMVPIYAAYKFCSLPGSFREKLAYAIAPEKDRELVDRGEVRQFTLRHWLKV
Structure (SMILES),target,test,test system,conditions,measurement,result
CCCCCn1cc(C(=O)c2ccc3c(c2)CC(C)(C)C3)c2ccccc21,"CNR1 (Homo sapiens, UniProt P21554)","G protein activation, agonist, BRET",,,EC50,1290 nM
CC1=CC(C)=[N+]2C1=Cc1ccc(CCC(=O)NCCOCCOCCOCCOCC(=O)N[C@H](C(=O)N3C[C@H](O)C[C@H]3C(=O)NCc3ccc(-c4scnc4C)cc3)C(C)(C)C)n1[B-]2(F)F,"von Hippel-Lindau disease tumor suppressor, with elongin B/C (VHL, Homo sapiens, UniProt P40337)","binding, TR-FRET",,"300 min, together with: BODIPY FL VH032",Kd,3.04 nM
CCCCCn1cc(C(=O)c2ccc3ccccc3c2)c2ccccc21,"CNR1 (Homo sapiens, UniProt P21554, L359V)","G protein activation, agonist, BRET",,,EC50,85.1 nM
CCCCCc1cc(O)c2c(c1)OC(C)(C)c1cc(O)c(C)cc1-2,rat intestinal maltase,inhibitor,,,Ki,181000 nM
CSCC[C@H](NC(=O)[C@@H]1CSSC[C@H](NC(=O)[C@H](CCCCN)NC(=O)[C@H](Cc2ccc(O)cc2)NC(=O)CNC(=O)[C@@H](N)CC(C(=O)O)C(=O)O)C(=O)N[C@@H](C(C)C)C(=O)N[C@H](Cc2c[nH]c3ccccc23)C(=O)N[C@@H](CCCCN)C(=O)N[C@@H]([C@@H](C)O)C(=O)N1)C(=O)N1C[C@H](O)C[C@H]1C(=O)N[C@@H](C)C(=O)O,"SSTR5 (Homo sapiens, UniProt P35346)","β-arrestin recruitment, agonist",,,EC50,> 300000 nM
CCCCCn1cc(C(=O)c2cccc3ccccc23)c2ccccc21,"CNR2 (Homo sapiens, UniProt P34972)","β-arrestin recruitment, agonist, BRET",,,EC50,20.9 nM
CC(C)C[C@H](NC(=O)OCc1ccccc1)C(=O)N[C@@H](C[C@@H]1CCNC1=O)C(O)S(=O)(=O)O (stereo partly shown),"Replicase polyprotein 1ab, main protease (rep, Human coronavirus NL63, UniProt P0C6X5)",viral replication,,,EC50,> 50000 nM
"CCCCCc1cc(O)c2c(c1)OC(C)(C)C1CCC(C)=CC21 (single isomer, unassigned; (-))",CYP2B6,inhibitor,"human, pooled liver microsomes","pH 7.4, together with: bupropion 12.5 to 100 µM",Ki,380 ± 29 nM
C=C1C(=O)[C@]23[C@H](OC(=O)[C@H](C)N)[C@H]1CC[C@H]2[C@@]12CO[C@@]3(O)[C@H](O)[C@@H]1C(C)(C)CC[C@@H]2O,"Replicase polyprotein 1ab, nsp9 (rep, Human coronavirus 229E, UniProt P0C6X1)",binding,,,Kd,1000 ± 200 nM
CCC(CC)O[C@@H]1C=C(C(=O)O)C[C@H](NC(=N)N)[C@H]1NC(C)=O,"neuraminidase (Influenza A virus, UniProt C3W6G3)",DIANA,,pH 7.4,Ki,570 ± 200 nM
CCCCCc1cc(O)c2c(c1)OC(C)(C)C1=C2[C@@H](O)[C@@](C)(O)CC1,rat intestinal maltase,inhibitor,,,Ki',216000 nM
CCCCCc1cc(O)c2c(c1)OC(C)(C)C1CCC(CO)=CC21 (stereo not shown),CYP2B6,"enzyme activity, inhibitor","human, liver microsomes",pH 7.4,Ki,2800 nM
CCC[C@@H](C(=O)c1ccccc1)N1CCCC1,"SLC6A3 (Homo sapiens, UniProt Q01959, F76Y)","transporter uptake, inhibitor, radiometric",,,Ki,60 nM
CC(=O)NC1C(OC2C(CO)OC(OC3C(CO)OC(O)C(O)C3O)C(O)C2OC2(C(=O)O)CC(O)C(NC(C)=O)C(C(O)C(CO)OC3(C(=O)O)CC(O)C(NC(C)=O)C(C(O)C(CO)OC4(C(=O)O)CC(O)C(NC(C)=O)C(C(O)C(O)CO)O4)O3)O2)OC(CO)C(O)C1O (stereo not shown),"hly (Listeria monocytogenes, UniProt P13128)",binding,,,Kd,6.7 nM
CCCCCn1cc(C(=O)c2cccc3c2CC(C)(C)C3)c2ccccc21,"CNR2 (Homo sapiens, UniProt P34972, V261L)","G protein activation, agonist, BRET",,,EC50,7.94 nM
Clc1ccc(C2C(n3ccnc3)C(c3ccc(Br)cc3)=NN2c2ccc(Cl)c(Cl)c2)cc1 (stereo not shown),"Genome polyprotein, protease (Enterovirus A71, UniProt Q66478)","enzyme activity, inhibitor",,,IC50,500 nM

# Some of these lines once more:
Structure (SMILES),target,test,test system,conditions,measurement,result
CCCCCn1cc(C(=O)c2cccc3ccccc23)c2ccccc21,"CNR2 (Homo sapiens, UniProt P34972)","β-arrestin recruitment, agonist, BRET",,,EC50,20.9 nM
CC(C)C[C@H](NC(=O)OCc1ccccc1)C(=O)N[C@@H](C[C@@H]1CCNC1=O)C(O)S(=O)(=O)O (stereo partly shown),"Replicase polyprotein 1ab, main protease (rep, Human coronavirus NL63, UniProt P0C6X5)",viral replication,,,EC50,> 50000 nM
